# Published values collected from several papers.
# Lines come from different studies, so protocols differ. ± marks the error that the study gave.
# MAPK8: Mitogen-activated protein kinase 8 (MAPK8, Homo sapiens, UniProt P45983)
SMILES,target,test,test system,conditions,scale,quantity,value
CC[C@H](C)[C@H](NC(=O)[C@@H](NC(=O)[C@@H](NC(=O)[C@@H](NC(=O)[C@H](CCCNC(=N)N)NC(=O)[C@H](CCC(=O)O)NC(=O)[C@H](CCC(=O)O)NC(=O)[C@H](C)NC(=O)[C@H](CCC(=O)O)NC(=O)CNC(=O)[C@H](C)NC(=O)CN)C(C)C)C(C)C)C(C)C)C(=O)N[C@@H](CC(=O)O)C(=O)N[C@@H](CC(=O)O)C(=O)N[C@@H](CC(=O)O)C(=O)N[C@@H](CCC(=O)O)C(=O)N[C@@H](CC(=O)O)C(=O)N[C@@H](CC(=O)O)C(=O)N[C@@H](CC(=O)O)C(=O)N[C@@H](C)C(=O)N[C@@H](CCC(=O)O)C(=O)N[C@@H](CC(N)=O)C(=O)N[C@@H](CO)C(=O)N[C@@H](CO)C(=O)N[C@@H](CO)C(=O)N[C@@H](CCCNC(=N)N)C(=O)N[C@@H](Cc1ccc(O)cc1)C(=O)O,"Small ubiquitin-related modifier 2 (Homo sapiens, UniProt P61956, C48A)",isothermal titration calorimetry,,"pH 7.4, SUMO2 construct",,-TΔS,-8.34 ± 0.02 kcal/mol
O=C(Nn1c(-c2cccc(Cl)c2)nc2ccccc2c1=O)c1ccccc1,"TRPM channel TRPM_PZQ (Fasciola hepatica, UniProt A0A4E0RBW4)",cell-attached patch clamp,,10 µM,,single channel conductance,138 ± 4 pS
CC(=O)N[C@H]1[C@H]([C@H](O)[C@H](O)CNC(=O)c2ccc(-c3ccccc3)cc2)O[C@@](OCc2cccc(Cl)c2Cl)(C(=O)O)C[C@@H]1O,"CD22 (Homo sapiens, UniProt P20273)",isothermal titration calorimetry,,,,ΔH,-11.55 ± 0.06 kcal/mol
CCC1(CC)C(=O)N(c2cccc(C(=O)N3CCN(Cc4ccc(Br)cc4)CC3)c2)C1=O,"Dipeptidyl peptidase 8 (Homo sapiens, UniProt Q6V1X1)",inhibitor,,added: GP-AMC substrate,relative to: Ki' DPP9 over Ki' DPP8,selectivity ratio,10
CCCCCC(O)/C=C/C=O (stereo not shown),"REEP5 (Homo sapiens, UniProt Q00765)",competitive isoTOP-ABPP,"proteome, soluble, MDA-MB-231","100 µM, 60 min, added: iodoacetamide probe","relative to: DMSO over compound-treated, higher = stronger cysteine blockade",isoTOP-ABPP competition ratio,8.9
COC(=O)[C@@]1(C)C=C(C(=O)OC(C)(C)C)C(=O)CC1,MAPK8,"D-peptide binding, inhibitor, FP peptide displacement",,3.906 µM,lower is stronger displacement,fraction bound,0.911
Cc1cn(CC(=O)N(CC(=O)N[C@H]2CCC[C@@H]2N(CC(=O)N[C@H]2COC[C@@H]2N(CC(=O)N[C@H]2COC[C@@H]2N(CC(=O)N[C@H]2COC[C@@H]2N(CC(=O)NCCOCCOCC(N)=O)C(=O)Cn2cnc3c(N)ncnc32)C(=O)Cn2cc(C)c(=O)[nH]c2=O)C(=O)Cn2cnc3c(N)ncnc32)C(=O)Cn2cnc3c(=O)[nH]c(N)nc32)[C@H]2CCC[C@@H]2NC(=O)CN(C(=O)Cn2cnc3c(=O)[nH]c(N)nc32)[C@H]2CCC[C@@H]2NC(=O)CN(C(=O)Cn2cc(C)c(=O)[nH]c2=O)[C@H]2COC[C@@H]2NC(=O)CN(C(=O)Cn2cnc3c(N)ncnc32)[C@H]2COC[C@@H]2NC(=O)CN(C(=O)Cn2cnc3c(=O)[nH]c(N)nc32)[C@H]2COC[C@@H]2N)c(=O)[nH]c1=O,complementary RNA,"duplex formation, UV melting curve fit",PBS,"1 µM, 298 K",,ΔG,-19.1 ± 0.3 kcal/mol
O=C1c2sc(-c3ccc(N4CCC(CO)CC4)nc3F)nc2CCN1c1cccnc1,"TAR DNA-binding protein 43, aggregated (TARDBP, Homo sapiens, UniProt Q13148)","binding, surface plasmon resonance",brain-derived TDP-43 aggregates,18.8 nM,,SPR response,2.25 RU
CCCCCCCCCCCCCCCC(=O)OCC(CSC[C@H](N)C(=O)N[C@@H](CO)C(=O)N[C@@H](CCCCN)C(=O)N[C@@H](CCCCN)C(=O)N[C@@H](CCCCN)C(=O)N[C@@H](CCCCN)C(=O)NCCCCCC(=O)N[C@@H](CCCCN)C(=O)N[C@@H](CC(C)C)C(=O)N[C@H](C(=O)N[C@@H](Cc1ccccc1)C(=O)N[C@@H](Cc1ccccc1)C(=O)N[C@@H](Cc1ccc2ccccc2c1)C(=O)O)C(C)C)OC(=O)CCCCCCCCCCCCCCC (stereo partly shown),"Amyloid-beta precursor protein, fibrillar amyloid-beta (APP, Homo sapiens, UniProt P05067)",TEM,,"2.0 eq, 3 h, fibril 5, added: APP 20 µM",,fibril diameter,52.5 nm
CCOc1ccc(C(=O)N2c3ccc(F)cc3[C@@H](Nc3ccccc3)C[C@H]2C)cc1,"Ecdysone receptor (Aedes albopictus, UniProt Q9U3Y4)","ligand binding, inhibitor",intact cells,added: [3H]ponasterone A,direction not given,pIC50 Z-score,0.39
COC(=O)[C@@]1(Cc2ccccc2)C=C(C(=O)OC(C)(C)C)C(=O)CC1,MAPK8,"D-peptide binding, inhibitor, FP peptide displacement",,3.906 µM,lower is stronger displacement,fraction bound,0.703
Cc1cc(=O)oc2cc(NC(=O)CCCCCCCC(=O)NO)ccc12,"HDAC8 (Homo sapiens, UniProt Q9BY41)",ITC,triethanolamine buffer,pH 7.5,,TΔS,4.9 kcal/mol
CC(C)C[C@@H]1NC(=O)[C@H](Cc2ccccc2)NC(=O)CSC[C@@H](C(=O)NCC(N)=O)NC(=O)[C@H](C(C)C)NC(=O)[C@H](Cc2ccccc2)NC(=O)[C@H](Cc2ccc(O)cc2)NC(=O)[C@H](C(C)C)NC(=O)[C@H](CC(=O)O)NC(=O)[C@H](Cc2ccccc2)NC(=O)[C@H](CCCNC(=N)N)NC(=O)[C@H](Cc2ccccc2)N(C)C(=O)[C@H](C)NC(=O)[C@H](Cc2ccccc2)NC(=O)[C@H](C(C)C)NC1=O,"STING1 (Homo sapiens, UniProt Q86WV6, H232R)","thermal stability, DSF",,200 µM,,ΔTm,-0.16 °C

# For quick reference, copied from above:
SMILES,target,test,test system,conditions,scale,quantity,value
Cc1cc(=O)oc2cc(NC(=O)CCCCCCCC(=O)NO)ccc12,"HDAC8 (Homo sapiens, UniProt Q9BY41)",ITC,triethanolamine buffer,pH 7.5,,TΔS,4.9 kcal/mol
CC(C)C[C@@H]1NC(=O)[C@H](Cc2ccccc2)NC(=O)CSC[C@@H](C(=O)NCC(N)=O)NC(=O)[C@H](C(C)C)NC(=O)[C@H](Cc2ccccc2)NC(=O)[C@H](Cc2ccc(O)cc2)NC(=O)[C@H](C(C)C)NC(=O)[C@H](CC(=O)O)NC(=O)[C@H](Cc2ccccc2)NC(=O)[C@H](CCCNC(=N)N)NC(=O)[C@H](Cc2ccccc2)N(C)C(=O)[C@H](C)NC(=O)[C@H](Cc2ccccc2)NC(=O)[C@H](C(C)C)NC1=O,"STING1 (Homo sapiens, UniProt Q86WV6, H232R)","thermal stability, DSF",,200 µM,,ΔTm,-0.16 °C
